# Published values gathered from unrelated publications.
# Compare with care: the assays were run in different laboratories.
# Technique: steady-state kinetics
# B1: POLK W214Y/W392H/Y50W (Homo sapiens, UniProt Q9UBT6); chain MGLNDNKAGMEGLDKEKINKIIMEATKGSRFWGNELKKEKQVNQRIENMMQQKAQITSQQLRKAQLQVDRFAMELEQSRNLSNTIVHIDMDAFYAAVEMRDNPELKDKPIAVGSMSMLSTSNYHARRFGVRAAMPGFIAKRLCPQLIIVPPNFDKYRAVSKEVKEILADYDPNFMAMSLDEAYLNITKHLEERQNYPEDKRRYFIKMGSSVENDNPGKEVNKLSEHERSISPLLFEESPSDVQPPGDPFQVNFEEQNNPQILQNSVVFGTSAQEVVKEIRFRIEQKTTLTASAGIAPNTMLAKVCSDKNKPNGQYQILPNRQAVMDFIKDLPIRKVSGIGKVTEKMLKALGIITCTELYQQRALLSLLFSETSHHYFLHISLGLGSTHLTRDGERKSMSVERTFSEINKAEEQYSLCQELCSELAQDLQKERLKGRTVTIKLKNVNFEVKTRASTVSSVVSTAEEIFAIAKELLKTEIDADFPHPLRLRLMGVRISSFPNEEDRKHQQ
# B2: enzyme R228K (Arabidopsis thaliana, UniProt O82390); chain MNARALLCSSNIHSLYTSNRPPEKTSSSRSLRNLKPSPKSLRVWIYPRNRSSVFRVLVRSSDKSESSNSYYVEGDKVSGNNDVVSDSPSSIVLPWWEEFPKRWVIVLLCFSAFLLCNMDRVNMSIAILPMSAEYGWNPATVGLIQSSFFWGYLLTQIAGGIWADTVGGKRVLGFGVIWWSIATILTPVAAKLGLPYLLVVRAFMGVGEGVAMPAMNNILSKWVPVQEKSRSLALVYSGMYLGSVTGLAFSPFLIHQFGWPSVFYSFGSLGTVWLTLWLTKAESSPLEDPTLLPEERKLIADNCASKEPVKSIPWRLILSKPPVWALISCHFCHNWGTFILLTWMPTYYHQVLKFNLMESGLLSVFPWMTMAISANAGGWIADTLVSRGFSVTNVRKIMQTIGFLGPAFFLTQLKHIDSPTMAVLCMACSQGTDAFSQSGLYSNHQDIAPRYSGVLLGLSNTAGVLAGVLGTAATGHILQHGSWDDVFTISVGLYLVGTVIWNLFSTGEKIID
# B3: bshA (Bacillus subtilis, UniProt P42982); chain MRKLKIGITCYPSVGGSGIIATELGKQLAEKGHEIHFITSSIPFRLNTYHPNIHFHEVEVNQYAVFKYPPYDLTLASKIAEVAERENLDIIHAHYALPHAVCAYLAKQMLKRNIGIVTTLHGTDITVLGYDPSLKDLIRFAIESSDRVTAVSSALAAETYDLIKPEKKIETIYNFIDERVYLKKNTAAIKEKHGILPDEKVVIHVSNFRKVKRVQDVIRVFRNIAGKTKAKLLLVGDGPEKSTACELIRKYGLEDQVLMLGNQDRVEDLYSISDLKLLLSEKESFGLVLLEAMACGVPCIGTNIGGIPEVIKNNVSGFLVDVGDVTAATARAMSILEDEQLSNRFTKAAIEMLENEFSSKKIVSQYEQIYADLAEPE
# B4: Nudt8 (Mus musculus, UniProt Q9CR24); chain MLPDGLSAEDEQRCRQLLARTTARLRSRPAAAAVLVPLCLVRGVPALLYTLRSSRLVGRHKGEVSFPGGKCDPDDQDVIHTALRETQEELGLEVPKEHVWGVLQPVYDREKATIVPVLANVGPLDLQSLRPNLEEVDEVFEMSLAHLLQTQNQGYTHFCQGGHFSYTLPVFLHGPHRVWGLTAVITELTLKLLAPGFYQPSLAVPELPRG
# B5: Gcs (Leishmania donovani, UniProt Q67BG3); chain MGLLTTGGAPIQWGTDANRKAIPHVREHGIQQFLNVFKNKKDLHGMPFLWGEELEHQLIQIHDNTVTLSTESAMVMNKLRARPDNCAVWNPEYGSFMIESTPDHPYSLSVESLDSVQDNIERRYDMLNKEAPPGVVGTTFVTFPLMGQGNFVHCSDKSSPYSQSLFVPDACINQTHPRFANLTANIRLRRGQKVCVLVPLYMDSRTMQDTVDPQLNIDLTPHNKDIFYSMRENGRNMTDELYAETDASAALLVPSSSLDPREDYPVTETLKQLFTPATLYYYAQYFTGQRREHMQERYNACNCPVTLVSHPCIYMDCMAFGMGNSALQVTMQLDNIHEARHVYDQLAILCPAFLALSSATPFQKGLLCDTDVRWLTIAGAVDDRRVEEVPRILKSRYDSISVFISDRTENLEEFNDSQIAINRSYCELLKDSGVDVRLANHIAHLFIRDPLVMYDKMIDIDDTTHTEHFDNIQSTNWQTVRFKPPPIGNDIGWRVEFRVMDIQPTPFENAAFAVFIPLLTKAIITYKPCFYTKISIVDENMGRAHRINPCGEQYIMRKDIFADKCTASDEETARMSIDEIFNGKEGGFYGLIPLVCRYLDDEGKRSPLVNSYLKFLSMRASGRIPTPAQYMRKFVTTHPDYKHDSRLTDSIARDLVQRMHGLAANQIHDDDYLPMSFFTADTVESTK
# B6: enzyme A178R/D177A/P184R (Levilactobacillus brevis, UniProt Q03Q85); chain MKVTVVGCTHAGTFAIKQILAEHPDAEVTVYERNDVISFLSCGIALYLGGKVADPQGLFYSSPEELQKLGANVQMNHNVLAIDPDQKTVTVEDLTNHAQTTESYDKLVMTSGSWPIVPKIPGIDSDRVKLCKNWAHAQALIEDAKEAKRITVIGAGYIGAELAEAYSTTGHDVTLIARMARVMRKYFDADFTDVIEQDYRDHGVQLALGETVESFTDSATGLTIKTDKNSYETDLAILCIGFRPNTDLLKGKVDMAPNGAIITDDYMRSSNPDIFAAGDSAAVHYNPTHQNAYIPLATNAVRQGILVGKNLVKPTVKYMGTQSSSGLALYDRTIVSTGLTLAAAKQQGLNAEQVIVEDNYRPEFMPSTEPVLMSLVFDPDTHRILGGALMSKYDVSQSANTLSVCIQNENTIDDLAMVDMLFQPNFDRPFNYLNILAQAAQAKVAQSVNA
# B7: enzyme (Chloroflexus aurantiacus, UniProt A9WIU3); chain MSGTGRLAGKIALITGGAGNIGSELTRRFLAEGATVIISGRNRAKLTALAERMQAEAGVPAKRIDLEVMDGSDPVAVRAGIEAIVARHGQIDILVNNAGSAGAQRRLAEIPLTEAELGPGAEETLHASIANLLGMGWHLMRIAAPHMPVGSAVINVSTIFSRAEYYGRIPYVTPKAALNALSQLAARELGARGIRVNTIFPGPIESDRIRTVFQRMDQLKGRPEGDTAHHFLNTMRLCRANDQGALERRFPSVGDVADAAVFLASAESAALSGETIEVTHGMELPACSETSLLARTDLRTIDASGRTTLICAGDQIEEVMALTGMLRTCGSEVIIGFRSAAALAQFEQAVNESRRLAGADFTPPIALPLDPRDPATIDAVFDWAGENTGGIHAAVILPATSHEPAPCVIEVDDERVLNFLADEITGTIVIASRLARYWQSQRLTPGARARGPRVIFLSNGADQNGNVYGRIQSAAIGQLIRVWRHEAELDYQRASAAGDHVLPPVWANQIVRFANRSLEGLEFACAWTAQLLHSQRHINEITLNIPANISATTGARSASVGWAESLIGLHLGKVALITGGSAGIGGQIGRLLALSGARVMLAARDRHKLEQMQAMIQSELAEVGYTDVEDRVHIAPGCDVSSEAQLADLVERTLSAFGTVDYLINNAGIAGVEEMVIDMPVEGWRHTLFANLISNYSLMRKLAPLMKKQGSGYILNVSSYFGGEKDAAIPYPNRADYAVSKAGQRAMAEVFARFLGPEIQINAIAPGPVEGDRLRGTGERPGLFARRARLILENKRLNELHAALIAAARTDERSMHELVELLLPNDVAALEQNPAAPTALRELARRFRSEGDPAASSSSALLNRSIAAKLLARLHNGGYVLPADIFANLPNPPDPFFTRAQIDREARKVRDGIMGMLYLQRMPTEFDVAMATVYYLADRNVSGETFHPSGGLRYERTPTGGELFGLPSPERLAELVGSTVYLIGEHLTEHLNLLARAYLERYGARQVVMIVETETGAETMRRLLHDHVEAGRLMTIVAGDQIEAAIDQAITRYGRPGPVVCTPFRPLPTVPLVGRKDSDWSTVLSEAEFAELCEHQLTHHFRVARKIALSDGASLALVTPETTATSTTEQFALANFIKTTLHAFTATIGVESERTAQRILINQVDLTRRARAEEPRDPHERQQELERFIEAVLLVTAPLPPEADTRYAGRIHRGRAITV
# B8: Alanine racemase (Geobacillus stearothermophilus, UniProt P10724); chain MNDFHRDTWAEVDLDAIYDNVENLRRLLPDDTHIMAVVKANAYGHGDVQVARTALEAGASRLAVAFLDEALALREKGIEAPILVLGASRPADAALAAQQRIALTVFRSDWLEEASALYSGPFPIHFHLKMDTGMGRLGVKDEEETKRIVALIERHPHFVLEGLYTHFATADEVNTDYFSYQYTRFLHMLEWLPSRPPLVHCANSAASLRFPDRTFNMVRFGIAMYGLAPSPGIKPLLPYPLKEAFSLHSRLVHVKKLQPGEKVSYGATYTAQTEEWIGTIPIGYADGWLRRLQHFHVLVDGQKAPIVGRICMDQCMIRLPGPLPVGTKVTLIGRQGDEVISIDDVARHLETINYEVPCTISYRVPRIFFRHKRIMEVRNAIGRGESSA
# B9: SULT1A1 I89A (Homo sapiens, UniProt P50225); chain MELIQDTSRPPLEYVKGVPLIKYFAEALGPLQSFQARPDDLLISTYPKSGTTWVSQILDMIYQGGDLEKCHRAPIFMRVPFLEFKAPGAPSGMETLKDTPAPRLLKTHLPLALLPQTLLDQKVKVVYVARNAKDVAVSYYHFYHMAKVHPEPGTWDSFLEKFMVGEVSYGSWYQHVQEWWELSRTHPVLYLFYEDMKENPKREIQKILEFVGRSLPEETVDFVVQHTSFKEMKKNPMTNYTTVPQEFMDHSISPFMRKGMAGDWKTTFTVAQNERFDADYAEKMAGCSLSFRSEL
# Chain of UniProt P14780 (whole entry, looked up): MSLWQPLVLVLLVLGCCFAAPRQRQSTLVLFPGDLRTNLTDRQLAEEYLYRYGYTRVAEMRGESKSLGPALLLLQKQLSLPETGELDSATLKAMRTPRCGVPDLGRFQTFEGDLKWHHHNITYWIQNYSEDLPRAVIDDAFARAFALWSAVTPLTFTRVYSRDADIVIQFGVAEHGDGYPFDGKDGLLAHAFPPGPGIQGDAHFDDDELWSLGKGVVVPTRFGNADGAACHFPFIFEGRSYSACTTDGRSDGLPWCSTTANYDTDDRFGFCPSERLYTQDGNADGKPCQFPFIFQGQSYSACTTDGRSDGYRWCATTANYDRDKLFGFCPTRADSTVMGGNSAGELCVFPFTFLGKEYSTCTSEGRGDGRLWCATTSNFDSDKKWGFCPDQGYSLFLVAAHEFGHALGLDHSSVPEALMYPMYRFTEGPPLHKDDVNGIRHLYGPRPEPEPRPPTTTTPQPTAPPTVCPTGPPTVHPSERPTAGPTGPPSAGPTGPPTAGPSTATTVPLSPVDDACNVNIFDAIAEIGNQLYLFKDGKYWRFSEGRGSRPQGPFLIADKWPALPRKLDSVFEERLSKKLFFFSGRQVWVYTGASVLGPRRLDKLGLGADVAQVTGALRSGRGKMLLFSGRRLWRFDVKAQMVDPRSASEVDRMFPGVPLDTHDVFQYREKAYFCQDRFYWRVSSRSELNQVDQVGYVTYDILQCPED
# Chain of UniProt Q8QZR1 (whole entry, looked up): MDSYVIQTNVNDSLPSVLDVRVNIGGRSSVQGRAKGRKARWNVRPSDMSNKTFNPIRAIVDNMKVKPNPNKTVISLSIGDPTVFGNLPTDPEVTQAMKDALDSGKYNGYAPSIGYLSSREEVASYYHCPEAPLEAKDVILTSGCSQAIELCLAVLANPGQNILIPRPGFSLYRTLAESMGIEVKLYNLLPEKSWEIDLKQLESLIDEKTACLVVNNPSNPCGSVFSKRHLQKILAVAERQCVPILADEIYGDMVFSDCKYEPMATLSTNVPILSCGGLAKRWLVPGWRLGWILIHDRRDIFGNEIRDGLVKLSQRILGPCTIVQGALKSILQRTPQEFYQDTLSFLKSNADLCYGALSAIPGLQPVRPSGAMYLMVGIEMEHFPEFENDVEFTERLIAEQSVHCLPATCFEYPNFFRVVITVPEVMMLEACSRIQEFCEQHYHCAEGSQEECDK
# Chain of UniProt P07914 (whole entry, looked up): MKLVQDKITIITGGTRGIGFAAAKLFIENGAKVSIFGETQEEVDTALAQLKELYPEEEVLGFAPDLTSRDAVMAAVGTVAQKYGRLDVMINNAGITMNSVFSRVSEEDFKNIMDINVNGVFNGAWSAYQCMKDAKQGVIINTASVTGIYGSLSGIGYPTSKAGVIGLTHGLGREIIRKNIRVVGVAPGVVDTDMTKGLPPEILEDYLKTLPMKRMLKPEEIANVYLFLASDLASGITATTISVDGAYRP
Molecule,substrate,conditions,Km [µM]
"Tat (Mus musculus, UniProt Q8QZR1)",N[C@@H](CCC(=O)O)C(=O)O,"pH 7, 38 °C, with: PLP",4900
B1 (POLK W214Y/W392H/Y50W),Nc1ccn([C@H]2C[C@H](O)[C@@H](COP(=O)(O)OP(=O)(O)OP(=O)(O)O)O2)c(=O)n1,"pH 7.5, 23 °C, MgCl2 5 mM, with: G template",0.67
"MMP9 (Homo sapiens, UniProt P14780)",CSCC[C@H](NC(=O)CNC(=O)[C@H](CC(C)C)NC(=O)[C@@H]1CCCN1C(=O)CNC(C)=O)C(=O)N[C@@H](Cc1c[nH]cn1)C(=O)NCC(=O)N[C@@H](CCCCN)C(N)=O,,727
B2 (enzyme R228K),O=P(O)(O)O,"pH 6.5, 25 °C, apparent, not purified",103
B3 (bshA),O=C(O)C[C@H](O)C(=O)O,"pH 7.5, 37 °C, apparent, with: UDP-GlcNAc 10 mM",410
"BaiA1 (Clostridium scindens, UniProt P07914)",C[C@H](CCC(=O)SCCNC(=O)CCNC(=O)[C@H](O)C(C)(C)COP(=O)(O)OP(=O)(O)OC[C@H]1O[C@@H](n2cnc3c(N)ncnc32)[C@H](O)[C@@H]1OP(=O)(O)O)[C@H]1CC[C@H]2[C@@H]3CC[C@@H]4CC(=O)CC[C@]4(C)[C@H]3CC[C@]12C,"pH 8.7, 37 °C, with: NADH",8.3
B4 (Nudt8),CCCC(=O)SCCNC(=O)CCNC(=O)[C@H](O)C(C)(C)COP(=O)(O)OP(=O)(O)OC[C@H]1O[C@@H](n2cnc3c(N)ncnc32)[C@H](O)[C@@H]1OP(=O)(O)O,"pH 8.5, with: 2 mM Mn2+",224
B5 (Gcs),N[C@@H](CS)C(=O)O,"apparent, with: ATP, L-glutamate, Mg2+",1700
B6 (enzyme A178R/D177A/P184R),NC(=O)C1=CN([C@@H]2O[C@H](COP(=O)(O)OP(=O)(O)OC[C@H]3O[C@@H](n4cnc5c(N)ncnc54)[C@H](OP(=O)(O)O)[C@@H]3O)[C@@H](O)[C@H]2O)C=CC1,"pH 7.5, 37 °C",61
B7 (enzyme),NC(=O)C1=CN([C@@H]2O[C@H](COP(=O)(O)OP(=O)(O)OC[C@H]3O[C@@H](n4cnc5c(N)ncnc54)[C@H](OP(=O)(O)O)[C@@H]3O)[C@@H](O)[C@H]2O)C=CC1,"apparent, cofactor varied",10
B8 (Alanine racemase),C[C@H](N)C(=O)O,"pH 8.9, 25 °C, L to D direction",5400
B9 (SULT1A1 I89A),C[C@]12CC[C@@H]3c4ccc(O)cc4CC[C@H]3[C@@H]1CC[C@@H]2O,"pH 7.2, 25 °C, with: PAPS 0.060–1.5 µM",1.2

# Excerpt of the above:
Molecule,substrate,conditions,Km [µM]
"MMP9 (Homo sapiens, UniProt P14780)",CSCC[C@H](NC(=O)CNC(=O)[C@H](CC(C)C)NC(=O)[C@@H]1CCCN1C(=O)CNC(C)=O)C(=O)N[C@@H](Cc1c[nH]cn1)C(=O)NCC(=O)N[C@@H](CCCCN)C(N)=O,,727
B2 (enzyme R228K),O=P(O)(O)O,"pH 6.5, 25 °C, apparent, not purified",103
